Measurements from different studies.
Target: Serine/threonine-protein kinase Nek4 (NEK4, Homo sapiens, UniProt P51957)

| SMILES | observed | action | method | concentration | baseline | endpoint | result |
| --- | --- | --- | --- | --- | --- | --- | --- |
| Cc1cnc2nc1Nc1cccc(c1)COC/C=C/COCc1cc(ccc1OCCN1CCOCC1)N2 | binding |  |  | 0.1 µM |  | remaining binding | 100% |
| Nc1ncc2c(n1)-c1c([nH]c3ccc(C4=CCOCC4)cc13)CCC2 | binding |  | competition with immobilised ligand | 1 µM |  | remaining binding | 100% |
| CN1CCN(Cc2ccc(-c3ccc(CO[C@H]4CCC[C@@H]4NC(=O)c4cc(-c5cnn(C)c5)cnc4N)cc3)cc2)CC1 | enzyme activity | inhibitor |  | 0.1 µM |  | inhibition | 3% |
| NC(=O)[C@@H](O)C[C@H]1CCc2sc3ncnc(O[C@H]4CC[C@H](N5CCOCC5)CC4)c3c21 | enzyme activity | inhibitor |  | 10 µM |  | inhibition | 0% |
| Nc1ncc(-c2cc(-c3cnn(CC(F)(F)F)c3)ncc2F)nc1C(=O)NC1CNCC(F)C1 (stereo not drawn) | enzyme activity |  |  | 1 µM | DMSO control | remaining activity | 104% |
| CNC(=O)C[C@H](Cc1ccc(C#N)cc1)NC(=O)c1cc(-c2ccc(CN[C@H](C)c3ccc(C)cc3)o2)ccc1Cl | enzyme activity | inhibitor |  | 1 µM |  | activity vs control | 116% |
| COc1cc(Nc2nccc(-c3cnn4nc(OC)ccc34)n2)cc(C(F)(F)F)c1 | binding |  | competition with immobilised ligand | 1 µM |  | remaining binding | 92% |
| CCN1CCN(Cc2ccc(C(=O)Nc3ccc(C)c(NCc4cnc5[nH]ccc5c4OC)c3)cc2C(F)(F)F)CC1 | binding |  | competition with immobilised ligand | 1 µM |  | remaining binding | 43% |
| Cc1ccc(-c2c(/C=C(\C#N)C(=O)NC(C)C)n(CCCO)c3ncnc(N)c23)cc1 | cell-free assay |  | competition with immobilised ligand | 1 µM |  | remaining binding | 94% |
| C=CC(=O)N1Cc2nc(-c3cc(-c4cc(Cl)cnc4Cl)c(F)cc3F)n(-c3ccncn3)c2C1 | cell-free assay | inhibitor |  | 1 µM |  | inhibition | 6.4% |
| CC(C)=CC1OC(C)(C)C2C=C3C(=O)C(Cl)=CC(O)C3C3C(O)C4OC4C(=O)C132 (stereo not drawn) | cell-free assay |  | competition with immobilised ligand | 10 µM |  | remaining binding | 99% |
| CN1C[C@@H](c2c[nH]c3cc(Br)ccc23)NC[C@@H]1c1c[nH]c2cc(Br)ccc12 | enzyme activity | inhibitor |  | 10 µM |  | remaining activity | 105% |

Excerpt of the above:
| SMILES | observed | action | method | concentration | baseline | endpoint | result |
| --- | --- | --- | --- | --- | --- | --- | --- |
| Cc1ccc(-c2c(/C=C(\C#N)C(=O)NC(C)C)n(CCCO)c3ncnc(N)c23)cc1 | cell-free assay |  | competition with immobilised ligand | 1 µM |  | remaining binding | 94% |
